Published values pooled from the literature.
Protocols differ between the studies behind these lines. “And” joins repeats or separate records; there may be more than shown. ± marks the error that the study gave. ≈ marks a conversion by molar mass, not a printed value.

C[C@]12CC[C@H]3[C@@H](CC=C4CC(O)CC[C@@]43CO)[C@@H]1CCC2O (stereo partly drawn)
fold increase (immunoblot, refers to: FXR protein; rat, GAN diet-induced MASH, liver; dose not given; baseline: GAN diet plus vehicle): ~2

O=C(O)/C=C/C(=O)O.Oc1cccc2[nH]cc(CCNC3CCCCC3)c12
head twitch count (C57BL/6J mice; subcutaneous, 10 mg/kg): 5.8 ± 1.1

O=C1c2c(O)c(=O)ccn2N([C@@H]2c3ccccc3SCc3c2ccc(F)c3F)[C@@H]2COCCN12
lung virus titre (influenza A virus H1N1; A/WSN/33, BALB/c mice, lung; subcutaneous, 0.0625 mg/kg every 6 h, 24 h): 4.23 log10 TCID50/mL and 3.67 log10 TCID50/mL and 4 log10 TCID50/mL

CCCNCCc1c[nH]c2cccc(O)c12.CCCNCCc1c[nH]c2cccc(O)c12.O=C(O)/C=C/C(=O)O
head twitch count (C57BL/6J mice; subcutaneous, 0.3 mg/kg): 9.5 ± 0.8

CC[C@H](C)[C@@H]1NC(=O)[C@@H]2CCCN2C(=O)[C@H](CC(C)C)NC(=O)[C@H](CC(C)C)NC(=O)CNC(=O)[C@@H](NC(=O)[C@@H](NC(=O)[C@H](CC(=O)O)NC(=O)CNC(=O)[C@@H](NC(=O)[C@H](C)NC(=O)CNC(=O)[C@H](CCCCN)NC(=O)[C@H](CC(C)C)NC(=O)[C@H](CC(C)C)NC(=O)[C@H](CCCCN)NC(=O)CNC(=O)[C@@H](NC(=O)[C@@H](N)CC(C)C)C(C)C)C(C)C)C(C)C)CSSC[C@@H](C(=O)O)NC1=O
log2 fold change (RNA-seq, refers to: Cfap43; mouse, traumatic brain injury model, frontal cortex and hippocampus; dose not given; baseline: TBI alone): -2.22

CCCCCCCCCCCCCCCCCC[N+](C)(C)Cc1ccc(C[N+](C)(C)CCCCCCCCCCCCCCCCCC)cc1.[Br-].[Br-]
protection (influenza A virus A/PR/8/34 (H1N1); concentration not given, co-treatment): 60.1 ± 2.9%

CC(C)(C)NCCc1c[nH]c2cccc(O)c12.CC(C)(C)NCCc1c[nH]c2cccc(O)c12.O=C(O)/C=C/C(=O)O
head twitch count (C57BL/6J mice; subcutaneous, 1 mg/kg): 6.8 ± 1.6

CS(=O)(=O)CCCn1c(Cn2c(=O)n(CC(F)(F)F)c3ccncc32)cc2cc(Cl)ccc21
LS mean difference vs placebo (respiratory syncytial virus; RT-qPCR; hospitalized infants 1-24 months, nasal swab; oral, 9, 6 or 5 mg/kg daily, day 3, high dose by age cohort; baseline: placebo): -1.91 log10 copies/mL

CC(C)N1CCC(NC2CCN(c3cccc(-c4cc5cc(F)ccc5[nH]4)c3)CC2)CC1
GI50 (UO-31): 1670 nM

O=C1NC(=O)C(C2C3=C(CCCC3=O)Oc3ccc([N+](=O)[O-])cc32)C(=O)N1 (stereo not drawn)
IC50 (3T3-L1 pre-adipocytes; cell viability, MTT; 72 h): > 100 µg/mL

Cn1c(=O)ccc2ccc(F)c(CCNC[C@H]3CN(c4cnc5c(n4)NC(=O)CO5)C(=O)O3)c21
MIC50 (Bacteroides fragilis): 0.06 µg/mL (≈ 0.128 µM)

C[C@H]1O[C@@H](O[C@H]2CC[C@@]3(C)[C@@H](CC[C@]4(C)[C@@H]3C=C[C@]35OC[C@@]6(CCC(C)(C)C[C@H]63)[C@@H](O)C[C@]54C)[C@]2(C)CO)[C@H](O)[C@@H](O[C@@H]2O[C@H](CO)[C@@H](O)[C@H](O)[C@H]2O)[C@H]1O
ALT activity (mouse, ethanol-fed, hepatic SIRT1 knockdown, plasma; dose not given, 5 h, high dose): 30.8 U/L and 17.8 U/L and 23 U/L and 27.3 U/L and 29.7 U/L and 25 U/L

CCCCCCCCCCCCCCCCCC[N+](C)(C)CCCCCCCCCC[N+](C)(C)CCCCCCCCCCCCCCCCCC.[Br-].[Br-]
HA titre reduction (influenza A virus A/PR/8/34 (H1N1); concentration not given, co-treatment): 5 log units

CS(=O)(=O)Nc1ncn(-c2cc(F)c(COc3ccc(OS(=O)(=O)F)cc3)c(F)c2)n1
MBC (Mycobacterium tuberculosis; H37Rv): 0.078 µM (≈ 0.0373 µg/mL)

CCCCNCCc1c[nH]c2cccc(O)c12.O=C(O)/C=C/C(=O)O
distance travelled (C57BL/6J mice; subcutaneous, 0.3 mg/kg, 30 min): 2510 ± 249 cm

COc1c(CCC[P+](c2ccccc2)(c2ccccc2)c2ccccc2)cc2c(c1OC)OCO2.[I-]
GI50 (HCT-15; SRB): -4.83 log M

CCCCCCCCCCCC[N+](C)(C)CCOCC[N+](C)(C)CCCCCCCCCCCC.[Br-].[Br-]
protection (influenza A virus A/PR/8/34 (H1N1); concentration not given, post-treatment): 41.5 ± 6.6%

CCOP(=S)(OCC)Oc1ccc([N+](=O)[O-])cc1
IC50 (nanobody A4; binding, ic-ELISA): 189 nM

CC(C)NCCc1c[nH]c2cccc(O)c12.O=C(O)/C=C/C(=O)O
distance travelled (C57BL/6J mice; subcutaneous, 0.03 mg/kg, 30 min): 2070 ± 262 cm

CC[C@H](C)[C@H](NC(=O)[C@H](C)NC(=O)[C@H](CCCCN)NC(=O)[C@H](CC(C)C)NC(=O)[C@H](C)NC(=O)[C@@H](NC(=O)[C@H](Cc1c[nH]cn1)NC(=O)[C@H](CC(C)C)NC(=O)[C@@H](NC(=O)[C@@H](NC(=O)[C@H](CCCCN)NC(=O)[C@H](C)NC(=O)[C@H](C)NC(=O)[C@H](CO)NC(=O)[C@H](CCCCN)NC(=O)[C@H](Cc1ccccc1)NC(=O)[C@@H](NC(=O)[C@H](CCCCN)NC(=O)[C@H](CC(C)C)NC(=O)[C@H](Cc1ccccc1)NC(=O)[C@H](CO)NC(=O)[C@H](CCCCN)NC(=O)[C@H](Cc1c[nH]c2ccccc12)NC(=O)[C@H](CCCCN)NC(C)=O)[C@@H](C)O)[C@@H](C)O)C(C)C)[C@@H](C)O)C(=O)N[C@@H](CO)C(=O)N[C@@H](CO)C(N)=O
MIC90 (Enterococcus faecium; 40 strains): 64 µg/mL (≈ 21.8 µM)

C=CCNCCc1c[nH]c2cccc(O)c12.C=CCNCCc1c[nH]c2cccc(O)c12.O=C(O)/C=C/C(=O)O
distance travelled (C57BL/6J mice; subcutaneous, 10 mg/kg, 30 min): 2540 ± 241 cm

COc1cc(CCC[P+](c2ccccc2)(c2ccccc2)c2ccccc2)c(OC)c2c1OCO2.[I-]
TGI (UO-31; SRB): -4.36 log M

CCNCCc1c[nH]c2cccc(O)c12.CCNCCc1c[nH]c2cccc(O)c12.O=C(O)CCC(=O)O
head twitch response (C57BL/6J mice; subcutaneous, 1 mg/kg): 15.8 ± 2.8 count/30 min

CCCCCCCCCCCCCCCCCC[N+](C)(C)CCCCCCCCCCCC[N+](C)(C)CCCCCCCCCCCCCCCCCC.[Br-].[Br-]
HA titre reduction (influenza A virus A/PR/8/34 (H1N1); concentration not given, co-treatment): 0 log units

Some of these lines once more:
C[C@]12CC[C@H]3[C@@H](CC=C4CC(O)CC[C@@]43CO)[C@@H]1CCC2O (stereo partly drawn)
fold increase (immunoblot, refers to: FXR protein; rat, GAN diet-induced MASH, liver; dose not given; baseline: GAN diet plus vehicle): ~2

CCCCNCCc1c[nH]c2cccc(O)c12.O=C(O)/C=C/C(=O)O
distance travelled (C57BL/6J mice; subcutaneous, 0.3 mg/kg, 30 min): 2510 ± 249 cm
